Experimental data of several laboratories.
Each line is one published result; not all experiments were run side by side. Numbers after ± are the reported error.

COc1cc(OC)c(/C=C/S(=O)(=O)Cc2ccc(OC)c(NCC(=O)O)c2)c(OC)c1
Cmax (cancer patients, phase I, plasma; oral, 700 mg twice daily, day 1 cycle 1): 5930 ± 4740 ng/mL

CCC(CC)O[C@@H]1C=C(C(=O)O)C[C@H](N)[C@H]1NC(C)=O
Cmax (healthy Indian subjects, fed, plasma; oral, 75 mg oseltamivir phosphate, reference capsule formulation, Tamiflu): 249 ± 63 ng/mL

CC(=O)Nc1ccc(O[C@@H]2O[C@H](C(=O)O)[C@@H](O)[C@H](O)[C@H]2O)cc1
Cmax (healthy volunteers, both sexes, plasma; oral, 650 mg acetaminophen, day 1): 13600 ng/mL

Cn1c(-c2ccc(C(N)=O)cc2F)nnc1C(C)(C)Oc1c(F)cc(Cl)cc1F
Cmax (elderly non-Japanese subjects, plasma; oral, 20 mg single dose, day 1, mean): 252 ng/mL

O=C1Nc2c(C(=O)O)ccnc2N(C2CC2)c2ncccc21
Cmax (olive baboon (Papio anubis), non-pregnant, serum; oral, 800 mg nevirapine, tablet): 321 ± 263 ng/mL

CCC[C@H](N[C@@H](C)C(=O)N1[C@H](C(=O)O)C[C@@H]2CCCC[C@@H]21)C(=O)OCC
Cmax (healthy Chinese volunteers, whole blood; oral, 4 mg, fasting, together with: indapamide 1.25 mg): 30.9 ± 10.3 ng/mL

CC[C@H](C)[C@H](NC(=O)[C@H](CCC(=O)O)NC(=O)[C@H](CO)NC(=O)[C@@H](NC(=O)[C@@H](N)CO)C(C)C)C(=O)N[C@@H](CCC(N)=O)C(=O)N[C@@H](CC(C)C)C(=O)N[C@@H](CCSC)C(=O)N[C@@H](Cc1cnc[nH]1)C(=O)N[C@@H](CC(N)=O)C(=O)N[C@@H](CC(C)C)C(=O)NCC(=O)N[C@@H](CCCCN)C(=O)N[C@@H](Cc1cnc[nH]1)C(=O)N[C@@H](CC(C)C)C(=O)N[C@@H](CC(N)=O)C(=O)N[C@@H](CO)C(=O)N[C@@H](CCSC)C(=O)N[C@@H](CCC(=O)O)C(=O)N[C@@H](CCCN=C(N)N)C(=O)N[C@H](C(=O)N[C@@H](CCC(=O)O)C(=O)N[C@@H](Cc1c[nH]c2ccccc12)C(=O)N[C@@H](CC(C)C)C(=O)N[C@@H](CCCN=C(N)N)C(=O)N[C@@H](CCCCN)C(=O)N[C@@H](CCCCN)C(=O)N[C@@H](CC(C)C)C(=O)N[C@@H](CCC(N)=O)C(=O)N[C@@H](CC(=O)O)C(=O)N[C@H](C(=O)N[C@@H](Cc1cnc[nH]1)C(=O)N[C@@H](CC(N)=O)C(=O)N[C@@H](Cc1ccccc1)C(=O)O)C(C)C)C(C)C
Cmax (postmenopausal women, osteoporosis, plasma; subcutaneous, 56.5 µg once weekly): 0.496 to 0.654 ng/mL

CC1=C2C[C@H]3[C@@H](CC[C@@H]4C[C@H](NS(C)(=O)=O)CC[C@@]43C)[C@@H]2CC[C@@]2(C1)O[C@@H]1C[C@H](C)CN[C@H]1[C@H]2C
Cmax (patients, plasma; oral, 130 mg daily, day 22, cycle 1): 336 ng/mL

CN1CCN(c2ccc3nc(-c4c(N)c5c(F)cccc5[nH]c4=O)[nH]c3c2)CC1
Cmax (patients, plasma; oral, 300 mg, day 1, maximum concurrent dosing, together with: gemcitabine and capecitabine): 279 ng/mL

CS(=O)(=O)n1cc2c(n1)CN([C@H]1CO[C@H](c3cc(F)ccc3F)[C@@H](N)C1)C2
Cmax (healthy Japanese men, plasma; oral, 1 mg once weekly, day 15): 21.2 nM

CN(C)C(=O)c1cc2cnc(Nc3ccc(N4CCNCC4)cn3)nc2n1C1CCCC1
Cmax (Japanese cancer patients, plasma; oral, 600 mg, steady state, no proton pump inhibitor, geometric mean): 3500 ng/mL

CCCC[C@H](NC(C)=O)C(=O)N[C@H]1CCC(=O)NC[C@@H](C(=O)N[C@@H](Cc2c[nH]c3ccccc23)C(N)=O)NC(=O)[C@H](CCCNC(=N)N)NC(=O)[C@@H](Cc2ccccc2)NC(=O)[C@H](Cc2c[nH]cn2)NC1=O
Cmax (healthy volunteers, plasma; subcutaneous, 1.0 mg once daily, day 7, steady state mean): 20.9 ng/mL

C[C@@H]1O[C@@H](OC[C@H]2O[C@@H](Oc3c(-c4ccc(O)c(O)c4)oc4cc(O)cc(O)c4c3=O)[C@H](O)[C@@H](O)[C@@H]2O)[C@H](O)[C@H](O)[C@H]1O
Cmax (healthy volunteers, urine; oral, dose not given, pharmaceutical preparations): 780 ± 10.4 ng/mL

CO[C@H]1C[C@@H]2CC[C@@H](C)[C@@](O)(O2)C(=O)C(=O)N2CCCC[C@H]2C(=O)O[C@H]([C@H](C)C[C@@H]2CC[C@@H](OP(C)(C)=O)[C@H](OC)C2)CC(=O)[C@H](C)/C=C(\C)[C@@H](O)[C@@H](OC)C(=O)[C@H](C)C[C@H](C)/C=C/C=C/C=C/1C
Cmax (HPLC-MS/MS; Japanese patients, whole blood; oral, 40 mg, day 1, cycle 1, geometric mean): 187 ng/mL

CC(C)=CCC[C@](C)(O[C@@H]1O[C@H](CO)[C@@H](O)[C@H](O)[C@H]1O)[C@H]1CC[C@]2(C)[C@@H]1[C@H](O)C[C@@H]1[C@@]3(C)CC[C@H](O[C@@H]4O[C@H](CO)[C@@H](O)[C@H](O)[C@H]4O[C@@H]4O[C@H](CO)[C@@H](O)[C@H](O)[C@H]4O)C(C)(C)[C@@H]3CC[C@]12C
Cmax (LC-MS/MS; healthy volunteers, serum; oral, 3 g fermented red ginseng): 16.7 ± 6.95 ng/mL

CC(C)(Sc1ccncc1-c1ccc(C#N)c2ccccc12)C(=O)O
Cmax (healthy Japanese male subjects, plasma; oral, 2.5 mg single dose, day 1, fasted, geometric mean): 4.89 ng/mL

Br.Cc1ccc(Sc2ccccc2N2CCNCC2)c(C)c1
Cmax (healthy adults, plasma; 10 mg at steady state, day 16, together with: omeprazole 40 mg single dose): 13.9 ng/mL

For quick reference, copied from above:
CC[C@H](C)[C@H](NC(=O)[C@H](CCC(=O)O)NC(=O)[C@H](CO)NC(=O)[C@@H](NC(=O)[C@@H](N)CO)C(C)C)C(=O)N[C@@H](CCC(N)=O)C(=O)N[C@@H](CC(C)C)C(=O)N[C@@H](CCSC)C(=O)N[C@@H](Cc1cnc[nH]1)C(=O)N[C@@H](CC(N)=O)C(=O)N[C@@H](CC(C)C)C(=O)NCC(=O)N[C@@H](CCCCN)C(=O)N[C@@H](Cc1cnc[nH]1)C(=O)N[C@@H](CC(C)C)C(=O)N[C@@H](CC(N)=O)C(=O)N[C@@H](CO)C(=O)N[C@@H](CCSC)C(=O)N[C@@H](CCC(=O)O)C(=O)N[C@@H](CCCN=C(N)N)C(=O)N[C@H](C(=O)N[C@@H](CCC(=O)O)C(=O)N[C@@H](Cc1c[nH]c2ccccc12)C(=O)N[C@@H](CC(C)C)C(=O)N[C@@H](CCCN=C(N)N)C(=O)N[C@@H](CCCCN)C(=O)N[C@@H](CCCCN)C(=O)N[C@@H](CC(C)C)C(=O)N[C@@H](CCC(N)=O)C(=O)N[C@@H](CC(=O)O)C(=O)N[C@H](C(=O)N[C@@H](Cc1cnc[nH]1)C(=O)N[C@@H](CC(N)=O)C(=O)N[C@@H](Cc1ccccc1)C(=O)O)C(C)C)C(C)C
Cmax (postmenopausal women, osteoporosis, plasma; subcutaneous, 56.5 µg once weekly): 0.496 to 0.654 ng/mL

CC1=C2C[C@H]3[C@@H](CC[C@@H]4C[C@H](NS(C)(=O)=O)CC[C@@]43C)[C@@H]2CC[C@@]2(C1)O[C@@H]1C[C@H](C)CN[C@H]1[C@H]2C
Cmax (patients, plasma; oral, 130 mg daily, day 22, cycle 1): 336 ng/mL
